# Measurements of several laboratories.
# Several values in a cell are separate wells, animals, samples, runs or records.
Compound,organism,assay,system,setting,how to read,quantity,value
C/C(=C\c1ccc(O)cc1)C(=O)Nc1ccc(C(=O)N[C@@H](Cc2c[nH]nn2)C(=O)Nc2ccc(C(=O)Nc3ccc(C(=O)Nc4ccc(C(=O)O)cc4)cc3)cc2)cc1,Salmonella enterica serovar Kentucky,broth microdilution,ciprofloxacin-sensitive,,,MIC,0.125 µg/mL
Cc1ccc(C(=O)c2sc(S)c(-c3nc4ccccc4s3)c2N)cc1,Hepatitis C virus,"viral replication, inhibitor","Huh7.5, genotype 4 ED43","concentration not given, non-toxic dose, HCVcc",,viral titre reduction,36.7%
CC1=NN(c2ccccc2F)C(=O)/C1=N\Nc1ccc(S(N)(=O)=O)cc1,Saccharomyces cerevisiae,,,200 µg/mL,,glucose uptake,44.5%
NNC(=O)c1ccncc1,Mycobacterium marinum,,,,,MIC90,40 µM
Nc1nc(-c2ccccc2)nc2[nH]nc(Nc3ccccc3F)c12,rhinovirus B5,viral cytopathic effect,HeLa,,,IC50,0.02 µM
Cc1cc(C(=O)Nc2nc3cccc(C)c3n2[C@H]2CCCCN(C(=O)/C=C/CN(C)C)C2)ccn1,Trypanosoma cruzi,intracellular amastigote growth,Tulahuen,,,EC50,0.061 µM and 0.027 µM
N=C(N)NCCC[C@@H]1NC(=O)[C@H](CCCNC(=N)N)NC(=O)[C@@H](CCCNC(=N)N)NC(=O)[C@@H](CCCNC(=N)N)NC(=O)[C@@H](C(c2ccccc2)c2ccccc2)NC(=O)[C@H](Cc2c[nH]c3ccccc23)NC(=O)[C@@H](C(c2ccccc2)c2ccccc2)NC1=O,Staphylococcus aureus,,MRSA ATCC BAA-1556,4 x MIC,,time to complete killing,2 h
C=C(NC(=O)c1csc(-c2nc3c(cc2O)-c2nc(cs2)C(=O)NC(C(C)O)C(=O)NC(=C(C)OC)c2nc(cs2)C(=O)NC2c4nc(cs4)C(=O)NC(COC(=O)c4c5c6c(cccc6n4O)COC(=O)C(OC4CC(C)(O)C(N(C)C)C(C)O4)C2OC5)c2nc-3cs2)n1)C(N)=O (centres unmarked),Enterococcus faecalis,,"vancomycin-intermediate, 10 isolates",serum 75%,,MIC50,0.0625 µg/mL
Cc1ccc(-c2nc(N)c3c(Nc4ccc(F)cc4)n[nH]c3n2)cc1F,rhinovirus B5,viral cytopathic effect,HeLa,,,IC50,2.07 µM
O=c1[nH]cc(C(c2cccc(Cl)c2)c2c[nH]c(=O)[nH]c2=O)c(=O)[nH]1,HIV-1 subtype C,"p24 antigen production, p24 ELISA",,15.6 µg/mL,,inhibition,< 25%
COc1ccc(N2CCN(C(=O)c3ccc(Cl)c([N+](=O)[O-])c3)CC2)cc1,Saccharomyces cerevisiae,CPY trafficking,,20 µM,,mature CPY,66%
CC(C)c1ccc(Nc2n[nH]c3nc(-c4ccccc4)nc(N)c23)cc1,rhinovirus B5,viral cytopathic effect,HeLa,,,IC50,0.14 µM
O=[N+]([O-])c1cc(Br)cc([N+](=O)[O-])c1NS(=O)(=O)c1ccc(Br)cc1,Arabidopsis thaliana,,"PYL4 overexpression, seeds",1 µM,,number of germinated seeds,33 and 35 and 34
CC1=C(C)[C@H](Oc2c(F)cc3c(C)cc(=O)oc3c2F)OC1=O,Phelipanche ramosa,stimulant,,1 µM,baseline: (±)-GR24,maximum germination stimulation,79%
CN(C(=O)c1ccn2ncc(-c3ccc(C(N)=O)cc3)c2c1)c1ccc(C#N)cn1,Cryptosporidium parvum,,neonatal calf,"dose not given, day of third treatment",,reduction in oocyst shedding,2 log
CC(C)n1ncc2c(C(=O)NCC3CNC3)cc(C3CC3)nc21,Enterovirus A71,viral replication,Tainan/4643/1998,30000 nM,,plaque reduction,100%
Cc1cccc2c1N(C(=O)n1ccnn1)CC2,Arabidopsis thaliana,,kai2 mutant,100 µM,,germination rate,20.4%
CC(C)(C)NCC(SS(=O)(=O)O)c1ccccc1 (centres unmarked),Schistosoma mansoni,,mice,"100 mg/kg x2 from day 42, perfusion day 56",,male worms recovered,9 worms per mouse and 30 worms per mouse and 23 worms per mouse
COc1c(NC(=O)c2ccc(NC(=O)[C@H](Cc3c[nH]nn3)NC(=O)c3ccc(NC(=O)/C(C)=C/c4ccc(O)cc4)cc3)cc2)ccc(C(=O)Nc2ccc(C(=O)O)cc2)c1O,Salmonella enterica serovar Kentucky,broth microdilution,ciprofloxacin-sensitive,,,MIC,0.5 µg/mL
CC(C)Oc1cccc(NC(=O)CCCN2C(=O)c3ccccc3C2=O)c1,Arabidopsis thaliana,,seedlings DR5 reporter line,"concentration not given, 7 days",,primary root growth,inhibited
NCCOCCO.O=C(O)C(Cl)Cl,Chenopodium album,herbicidal activity,,"15 mg/mL, 21 days, pre-emergence greenhouse",,inhibition,0%
COc1cc(C(=O)O)ccc1NC(=O)c1ccc(NC(=O)c2ccc(NC(=O)[C@H](Cc3c[nH]nn3)NC(=O)c3ccc(NC(=O)/C(C)=C/c4ccc(O)cc4)cc3)cc2)c(OC)c1,Salmonella enterica serovar Kentucky,broth microdilution,ciprofloxacin-resistant,,,MIC,0.5 µg/mL
COC1C=COC2(C)Oc3c(C)c(O)c4c(c3C2=O)C2=NC3(CCN(CC(C)C)CC3)NC2=C(NC(=O)C(C)=CC=CC(C)C(O)C(C)C(O)C(C)C(OC(=O)Nc2cscn2)C1C)C4=O (centres unmarked),Mycobacteroides abscessus,"intracellular growth, Hill fit","THP-1 derived macrophages, ATCC 19977",,,IC90,0.22 µM
[2H]C([2H])(N)C([2H])([2H])NC(=O)c1cc(C2CC2)nc2c1cnn2C(C)C,Enterovirus A71,viral replication,Tainan/4643/1998,9000 nM,,plaque reduction,100%
Cc1cccc2c1N(C(=O)n1ccnc1)CC2,Arabidopsis thaliana,,"wild type, seeds","1 µM, after high-temperature exposure, together with: 1 µM karrikin KAR2",,germination rate,56.3% and 53.7% and 57.9% and 53.8% and 47.1% and 60.9% and 75.8%
CSc1ccc(Nc2n[nH]c3nc(-c4ccccc4)nc(N)c23)cc1,rhinovirus B5,viral cytopathic effect,HeLa,,,IC50,0.03 µM
FC(F)(F)c1cccc(CNc2nc(NC3CCN(Cc4ccccc4)CC3)c3nc[nH]c3n2)c1,Cryptococcus neoformans,"RNA-seq, refers to: CNAG_05321",wild type,"48 µg/mL, 3 h",baseline: untreated wild type,log2 fold change,-0.124
CC(C)n1ncc2c(C(=O)NCC(C)(C)N)cc(C3CC3)nc21,Enterovirus A71,viral replication,Tainan/4643/1998,9000 nM,,plaque reduction,100%
C=C[C@]1(C)C[C@@H](OC(=O)CSc2ccc(NC(=O)c3ccco3)cc2)[C@]2(C)[C@H](C)CC[C@]3(CCC(=O)[C@H]32)[C@@H](C)[C@@H]1O,Mycoplasma gallisepticum,,infected chickens,"intramuscular, 30 mg/kg daily x3, scale 0 to 4",direction not given,air sac lesion score,2 and 1 and 3
Nc1nc(-c2ccccc2)nc2[nH]nc(Nc3ccc([N+](=O)[O-])cc3)c12,rhinovirus B5,viral cytopathic effect,HeLa,,,IC50,0.14 µM
COc1cc(C(=O)Nc2ccc(C(=O)O)c(O)c2OC)ccc1NC(=O)c1ccc(NC(=O)[C@H](Cc2c[nH]nn2)NC(=O)c2ccc(NC(=O)/C(C)=C/c3ccc(O)cc3)cc2)cc1,Salmonella enterica serovar Kentucky,broth microdilution,ciprofloxacin-sensitive,,,MIC,0.125 µg/mL
COC1CCC(N(C(=O)C2CCC(C)CC2)c2cc(C3=CCCCC3)sc2C(=O)O)CC1 (centres unmarked),Arabidopsis thaliana,,Col-0,10 µM,,root hair density,21.7 root hairs/mm
O=c1[nH]cc(C(c2cccc(C(F)(F)F)c2)c2c[nH]c(=O)[nH]c2=O)c(=O)[nH]1,HIV-1 subtype C,"p24 antigen production, p24 ELISA",,1.95 µg/mL,,inhibition,< 25%
COc1cc(C(=O)O)ccc1NC(=O)c1ccc(NC(=O)c2ccc(NC(=O)[C@H](Cc3c[nH]nn3)NC(=O)c3ccc(NC(=O)/C(C)=C/c4ccc(O)cc4)cc3)cc2)c(OC)c1O,Salmonella Typhimurium,broth microdilution,TA100,,,MIC,0.063 µg/mL
CC1=CC(OC=C2C(=O)OC3c4ccccc4CC23)OC1=O (racemic),Arabidopsis thaliana,,Col-0,,,maximum germination,85%
COc1ccc(CNc2nc([C@H]3CC[C@H](C(=O)O)CC3)nc3sc4ccccc4c23)cc1Cl,Cryptosporidium parvum,"parasite growth, immunofluorescence imaging","HCT-8, Iowa",6 µM,,inhibition,92.6% and 89.9%
COc1cc(C(=O)O)ccc1NC(=O)c1ccc(NC(=O)c2ccc(NC(=O)[C@H](Cc3c[nH]nn3)NC(=O)c3ccc(NC(=O)/C(C)=C/c4ccc(O)cc4)cc3)cc2)cc1,Salmonella enterica serovar Kentucky,broth microdilution,ciprofloxacin-sensitive,,,MIC,0.25 µg/mL
CC1=C(C)[C@H](O/C=C2/C(=O)O[C@@H]3c4ccccc4C[C@H]23)OC1=O (racemic),Phelipanche ramosa,"seed germination, stimulant",seeds,1 µM,baseline: (±)-GR24,maximum germination stimulation,95%
O=c1[nH]cc(C(c2ccccc2Br)c2c[nH]c(=O)[nH]c2=O)c(=O)[nH]1,HIV-1 subtype C,"p24 antigen production, p24 ELISA",,125 µg/mL,,inhibition,52%
COc1cc(C(=O)Nc2ccc(C(=O)O)c(O)c2)ccc1NC(=O)c1ccc(NC(=O)[C@H](Cc2c[nH]nn2)NC(=O)c2ccc(NC(=O)/C(C)=C/c3ccc(O)cc3)cc2)cc1,Salmonella Typhimurium,broth microdilution,TA100,,,MIC,0.125 µg/mL
O=c1[nH]cc(C(c2ccc(Cl)cc2)c2c[nH]c(=O)[nH]c2=O)c(=O)[nH]1,HIV-1 subtype C,"p24 antigen production, p24 ELISA",,250 µg/mL,,inhibition,70%
COc1c(NC(=O)c2ccc(NC(=O)c3ccc(NC(=O)[C@H](Cc4c[nH]nn4)NC(=O)c4ccc(NC(=O)/C(C)=C/c5ccc(O)cc5)cc4)cc3)cc2)ccc(C(=O)O)c1O,Salmonella enterica serovar Kentucky,broth microdilution,ciprofloxacin-sensitive,,,MIC,0.125 µg/mL
CC(=O)OC[C@H]1O[C@@H](Sc2sc(C(=O)c3ccc(Br)cc3)c(N)c2-c2nc3ccccc3s2)[C@H](OC(C)=O)[C@@H](OC(C)=O)[C@H]1OC(C)=O,Hepatitis C virus,"viral replication, inhibitor","Huh7.5, genotype 4 ED43","concentration not given, non-toxic dose, HCVcc",,viral titre reduction,26.7%
Cc1ccccc1C(c1c[nH]c(=O)[nH]c1=O)c1c[nH]c(=O)[nH]c1=O,HIV-1 subtype C,"p24 antigen production, p24 ELISA",,3.9 µg/mL,,inhibition,< 25%

# Excerpt of the above:
Compound,organism,assay,system,setting,how to read,quantity,value
COc1cc(C(=O)O)ccc1NC(=O)c1ccc(NC(=O)c2ccc(NC(=O)[C@H](Cc3c[nH]nn3)NC(=O)c3ccc(NC(=O)/C(C)=C/c4ccc(O)cc4)cc3)cc2)c(OC)c1,Salmonella enterica serovar Kentucky,broth microdilution,ciprofloxacin-resistant,,,MIC,0.5 µg/mL
CC(C)(C)NCC(SS(=O)(=O)O)c1ccccc1 (centres unmarked),Schistosoma mansoni,,mice,"100 mg/kg x2 from day 42, perfusion day 56",,male worms recovered,9 worms per mouse and 30 worms per mouse and 23 worms per mouse
Cc1ccc(C(=O)c2sc(S)c(-c3nc4ccccc4s3)c2N)cc1,Hepatitis C virus,"viral replication, inhibitor","Huh7.5, genotype 4 ED43","concentration not given, non-toxic dose, HCVcc",,viral titre reduction,36.7%
CC(C)Oc1cccc(NC(=O)CCCN2C(=O)c3ccccc3C2=O)c1,Arabidopsis thaliana,,seedlings DR5 reporter line,"concentration not given, 7 days",,primary root growth,inhibited
CN(C(=O)c1ccn2ncc(-c3ccc(C(N)=O)cc3)c2c1)c1ccc(C#N)cn1,Cryptosporidium parvum,,neonatal calf,"dose not given, day of third treatment",,reduction in oocyst shedding,2 log
